Experimental data of several laboratories.
Protocols differ between the studies behind these lines. ± gives the spread as reported.

| SMILES | test | test system | conditions | quantity | result |
| --- | --- | --- | --- | --- | --- |
| CC[C@H](C)C(=O)N1CCC(NC(=O)Nc2ccc(OC(F)(F)F)c(F)c2)CC1 |  | healthy volunteers | oral, 24 mg single dose, device site dermatitis | subjects with dermatitis TEAE | 50% |
| CC[C@H](C)[C@H](NC(=O)[C@H](Cc1ccccc1)NC(=O)[C@@H]1CCCN1C(=O)[C@H](CCCCN)NC(=O)[C@H](CCCCN)NC(=O)[C@H](Cc1ccccc1)NC(=O)[C@H](Cc1ccccc1)NC(=O)[C@@H](C)NC(=O)[C@@H](N)Cc1ccc(O)cc1)C(=O)N[C@@H](CC(C)C)C(=O)O |  | anesthetized rat | intrathecal, 10 nmol/rat, 1 to 5 min | maximum heart rate | 435 ± 31 beats/min |
| CC[C@H](C)[C@H](NC(=O)[C@H](Cc1ccccc1)NC(=O)[C@H](CC(=O)O)NC(=O)[C@H](CCCN)NC(=O)[C@H](Cc1ccccc1)NC(=O)[C@H](Cc1ccccc1)NC(=O)[C@H](CCCCN)NC(=O)[C@H](CCN)NC(=O)[C@H](CC(C)C)NC(=O)[C@H](CCCNC(=N)N)NC(=O)[C@H](CCSC)NC(=O)[C@H](C)N)C(=O)N[C@@H](CC(C)C)C(=O)N[C@@H](CCC(N)=O)C(=O)N[C@@H](CCCNC(=N)N)C(=O)N[C@@H](CCCCN)C(=O)N[C@@H](CCCCN)C(=O)O | circular dichroism | 20% TFE in PBS | 200 µM, pH 7.4, 25 °C | helicity | 15.2% |
| COC(=O)C[C@](O)(CCCC(C)(C)OC(C)=O)C(=O)O[C@@H]1C(OC)=C[C@]23CCCN2CCc2cc4c(cc2[C@H]13)OCO4 |  | CD1 mouse, kidney | subcutaneous, 1 mg/kg, 24 h, below quantification limit 1.00 ng/mL | tissue concentration | not detected |
| COc1cc(NC(=O)C(=O)c2c(C)n(Cc3ccc(Cl)cc3)c3ccc(C)cc23)ccn1 |  | cynomolgus monkey, both sexes, urine | oral, 1000 mg/kg once daily, day 5, up to 24 h | number of urine metabolites | 17 |
| O=C(NCCCCCn1ccc2ccc(F)cc21)Oc1ccccc1F |  | PBS with Triton X-100 | 20 µM, 60 min, pH 7.4 | parent remaining | 91 ± 3% |
| CN(C)C(CNC(=O)Nc1cc(C(F)(F)F)ccc1N1CCOCC1)c1ccncc1 (stereo not drawn) |  | mouse, serum | intraperitoneal, 360 mg/kg single dose | serum iron | 137 µg/dL |
| CC(CCC(=O)NCC(=O)O)C1CCC2C3C(O)CC4CC(OC5OC(C(=O)O)C(O)C(O)C5O)CCC4(C)C3CCC12C (stereo not drawn) |  | human, SLCO1B1 *15/*15, plasma | geometric mean, sex-adjusted | plasma concentration | 255 ng/mL |
| CC(=O)OC1O[C@@H]2O[C@@]3(C)CC[C@H]4[C@H](C)CCC([C@H]1C)[C@@]24OO3 (stereo partly drawn) |  | Tg(fli1:EGFP) zebrafish embryos | 100 µg/mL, up to 48 hpf | dead embryos | 4 count |

For quick reference, copied from above:
| SMILES | test | test system | conditions | quantity | result |
| --- | --- | --- | --- | --- | --- |
| CC(CCC(=O)NCC(=O)O)C1CCC2C3C(O)CC4CC(OC5OC(C(=O)O)C(O)C(O)C5O)CCC4(C)C3CCC12C (stereo not drawn) |  | human, SLCO1B1 *15/*15, plasma | geometric mean, sex-adjusted | plasma concentration | 255 ng/mL |
